Measurements gathered from unrelated publications.
Compare with care: the assays were run in different laboratories. “And” joins repeats or separate records; there may be more than shown. ± gives the spread as reported.

COc1ccc(Nc2nc(Nc3ccc(OCCOCC[18F])cc3)ncc2Br)cc1
tissue uptake (ICR mice, S180 tumour, heart; intravenous, 30 min, added: PF-562271 33 mg/kg oral 1 h before): 2.48 ± 0.08 %ID/g

O=C(NCC1OC2CCC=CCCC2O1)c1ccc(COCCOCCOCC[18F])cc1 (stereo not drawn)
tissue uptake (healthy female BALB/c nude mice, lungs; intravenous, 7.4 MBq per mouse, 15 min): 2.8 ± 0.03 %ID/g

O=C([O-])CN1CCN(CC(=O)[O-])CCN(CC(=O)NC[C@H]2CC[C@H](C(=O)N[C@H](Cc3cnc4ccccc4c3)C(=O)NCCCC[C@H](NC(=O)N[C@@H](CCC(=O)O)C(=O)O)C(=O)O)CC2)CCN(CC(=O)[O-])CC1.[64Cu+2]
tissue uptake (ex vivo gamma counting; 22Rv1 tumour-bearing mice, liver; intravenous, 0.74 MBq, 2 h post-injection): 20.6 %ID/g

O=C(NCC1OC2CCC=CCCC2O1)c1ccc([18F])nc1 (stereo not drawn)
tissue uptake (healthy female BALB/c nude mice, stomach; intravenous, 7.4 MBq per mouse, 10 min): 4.5 ± 1.4 %ID/g

CCCC[C@H](NC(=O)CCCCCCCNC(=O)CN1CCN(CC(=O)O)CCN(CC(=O)O)CC1)C(=O)N[C@H]1CC(=O)NCCCC[C@@H](C(N)=O)NC(=O)[C@H](Cc2c[nH]c3ccccc23)NC(=O)[C@H](CCCNC(=N)N)NC(=O)[C@@H](Cc2ccccc2)NC(=O)[C@H](Cc2c[nH]cn2)NC1=O [fluorine-18 labelled]
tissue uptake (C57 mice B16/F10 melanoma, intestines; intravenous, 1 h, added: NDP-MSH 10 µg blockade): 2.27 ± 0.5 %ID

N#C[C@@H]1CCCN1C(=O)CNC(=O)c1ccnc2ccc(OCCCN3CCN(C(=O)CCc4ccc5c(c4)CN4CCN6CC(=O)[O][68Ga-]([O]C(=O)C4)([O]5)[O]c4ccc(CCC(=O)N5CCN(CCCOc7ccc8nccc(C(=O)NCC(=O)N9CCC[C@H]9C#N)c8c7)CC5)cc4C6)CC3)cc12
tissue uptake (BALB/c nude mice, U-87 MG xenograft, intestine; 1 h, blocking, added: DOTA-FAPI-04 40 nmol/mouse co-injected): 6.12 ± 2.06 %ID/g

CCCC[C@H](NC(=O)COCCOCCNC(=O)CN1CCN(CC(=O)O)CCN(CC(=O)O)CC1)C(=O)N[C@H]1CC(=O)NCCCC[C@@H](C(N)=O)NC(=O)[C@H](Cc2c[nH]c3ccccc23)NC(=O)[C@H](CCCNC(=N)N)NC(=O)[C@@H](Cc2ccccc2)NC(=O)[C@H](Cc2c[nH]cn2)NC1=O [fluorine-18 labelled]
tissue uptake (C57 mice, B16/F10 melanoma, brain; intravenous, 1 h, added: NDP-MSH 10 µg): 0.02 ± 0.04 %ID/g

Cc1cc(C)n(CCN(CCN)CCCCCCNC(=O)[C@@H](N)Cc2c[nH]c3ccccc23)n1.[99Tc+].[C-]#[O+].[C-]#[O+].[C-]#[O+]
tissue uptake (BALB/c nude mice, A549 xenograft, heart; intravenous, 15 min): 1.13 ± 0.13 %IA/g

CCCC[C@H](NC(=O)CNC(=O)CNC(=O)[C@H](CCCCNC(=O)[C@H](CC(=O)O)NC(=O)C(C)c1ccc(CC(C)C)cc1)NC(=O)CN1CCN(CC(=O)O)CCN(CC(=O)O)CCN(CC(=O)O)CC1)C(=O)N[C@H]1CC(=O)NCCCC[C@@H](C(N)=O)NC(=O)[C@H](Cc2c[nH]c3ccccc23)NC(=O)[C@H](CCCNC(=N)N)NC(=O)[C@@H](Cc2ccccc2)NC(=O)[C@H](Cc2c[nH]cn2)NC1=O (stereo partly drawn) [lutetium-177 labelled]
tissue uptake (C57 mice, tumour-bearing, lung; 2 h): 0.9 ± 0.24 %ID/g

CC(C)C[C@H](NC(=O)[C@@H](CCCCNC(=O)[C@@H](Cc1ccccc1)NC(=O)CCCCCCCNC(=O)CN1CCN(CC(=O)O)CCN(CC(=O)O)CCN(CC(=O)O)CC1)NC(=O)[C@H](Cc1ccc(O)cc1)NC(=O)[C@H](CO)NC(=O)[C@H](Cc1c[nH]c2ccccc12)NC(=O)[C@H](Cc1c[nH]cn1)NC(=O)[C@@H]1CCC(=O)N1)C(=O)N[C@@H](CCCNC(=N)N)C(=O)N1CCC[C@H]1C(=O)NCC(N)=O [indium-111 labelled]
tissue uptake (biodistribution; male athymic nude mice, DU-145 prostate cancer xenograft, brain; intravenous, 0.037 MBq, 0.5 h post-injection): 0.09 ± 0.04 %ID/g

Cc1cc(C)n(CCN(CCN)CCCCCCNC(=O)[C@@H](N)Cc2c[nH]cn2)n1.[99Tc+].[C-]#[O+].[C-]#[O+].[C-]#[O+]
tissue uptake (BALB/c nude mice, MCF7 xenograft, pancreas; intravenous, 4 h): 0.44 ± 0.09 %IA/g

COc1ccc2c(c1)C(C)(C)C(/C=C/C1=C(Oc3ccc(C(=O)NCCCCOc4cc(CN(Cc5ccccn5)Cc5ccccn5)cc(CN(Cc5ccccn5)Cc5ccccn5)c4)cc3)C(=C/C=C3/N(CCCCS(=O)(=O)[O-])c4ccc(OC)cc4C3(C)C)CCC1)=[N+]2CCCCS(=O)(=O)[O-].O=[N+]([O-])[O-].O=[N+]([O-])[O-].[99Tc+].[C-]#[O+].[C-]#[O+].[C-]#[O+].[Zn+2]
tissue uptake (healthy BALB/c mice, kidneys; 12 h): 2 %ID/g and 1.79 %ID/g and 1.6 %ID/g and 1.67 %ID/g

Excerpt of the above:
CC(C)C[C@H](NC(=O)[C@@H](CCCCNC(=O)[C@@H](Cc1ccccc1)NC(=O)CCCCCCCNC(=O)CN1CCN(CC(=O)O)CCN(CC(=O)O)CCN(CC(=O)O)CC1)NC(=O)[C@H](Cc1ccc(O)cc1)NC(=O)[C@H](CO)NC(=O)[C@H](Cc1c[nH]c2ccccc12)NC(=O)[C@H](Cc1c[nH]cn1)NC(=O)[C@@H]1CCC(=O)N1)C(=O)N[C@@H](CCCNC(=N)N)C(=O)N1CCC[C@H]1C(=O)NCC(N)=O [indium-111 labelled]
tissue uptake (biodistribution; male athymic nude mice, DU-145 prostate cancer xenograft, brain; intravenous, 0.037 MBq, 0.5 h post-injection): 0.09 ± 0.04 %ID/g
